Measurements of several laboratories.
Each numbered part is a random draw from the data of one study; scales do not carry over between parts. Changes are numbered by the printed parent chain.

Study 1 — target: CCNB1, cyclin fold, Cln2 fusion (human); technique: yeast growth competition, sequencing; matrix: yeast; setting: weak parent motif; relative to: not given; reading: higher = stronger binding
Parent: EXO1 docking peptide (human); KPECGRVQRAIFQ
Change | normalised enrichment score
KPECGAVQRAIFQ [R6A] | 0.0734
KPECARVQRAIFQ [G5A] | -0.324
KPECGRVQRAIFA [Q13A] | 0.133
KPECGRVQAAIFQ [R9A] | -0.00896
KPECGRVQRAAFQ [I11A] | 0.102
KPACGRVQRAIFQ [E3A] | 0.374

Study 2 — target: MAFF, bZIP domain (human); technique: DHFR protein complementation; matrix: yeast; relative to: wild-type JUN-FOS pair; reading: higher = stronger binding
Setting: single substitutions, most at no-binding floor
Parent: JUN, bZIP domain (human); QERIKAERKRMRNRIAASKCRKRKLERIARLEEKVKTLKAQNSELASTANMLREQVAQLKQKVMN; partner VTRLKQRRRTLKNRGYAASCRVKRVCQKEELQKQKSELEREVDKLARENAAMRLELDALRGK
Change | binding fitness
L31E | -1.55 natural log
L52Q | -1.43 natural log
A49K | -1.16 natural log
V56T | -1.5 natural log
I28F | -1.12 natural log
L38F | -1.56 natural log
N42C | -1.18 natural log
R30E | -1.41 natural log
A57L | -1.5 natural log
E32V | -1.35 natural log
Q55S | -1.43 natural log
S47E | -1.38 natural log
S43P | -1.49 natural log
V35L | -1.51 natural log
Q55T | -1.55 natural log

Study 3 — technique: DHFR PCA, deep sequencing; matrix: yeast; added: (+)-ABA 0.0091 µM; relative to: wild-type fitted maximum; reading: higher = stronger binding
Target: ABI1, truncated, D143A, DHFR fusion (Arabidopsis thaliana)
Setting: methotrexate growth selection, single substitutions
Parent: PYL1, truncated, DHFR fusion (Arabidopsis thaliana); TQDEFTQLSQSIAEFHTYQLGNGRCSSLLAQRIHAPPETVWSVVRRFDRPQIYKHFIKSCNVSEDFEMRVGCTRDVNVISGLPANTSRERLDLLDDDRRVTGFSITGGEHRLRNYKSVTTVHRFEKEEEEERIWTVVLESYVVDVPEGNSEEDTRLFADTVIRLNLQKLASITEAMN
Change | relative binding score [%]
H122A | 2.22
E139P | -7.05
A84L | 18.6
H34A | 37.3
H16N | -1.32
V136Q | -5.21
R99S | -0.749
P50V | 0.202
Y18T | -1.84
Y53I | 3.3
Y18A | -0.00651
C25I | 58.5
E151H | 19.6
A170S | -3.09
F124E | 6.14
P146A | 26.5
T86N | 21.1
T154C | 1.12
L93F | 6.08

Study 4 — target: UBE2H UBC core domain (UniProt P62256); technique: yeast two-hybrid; matrix: yeast; setting: mostly zero background; relative to: not given; reading: higher = stronger interaction
UniProt P62256, sequence (whole entry, looked up): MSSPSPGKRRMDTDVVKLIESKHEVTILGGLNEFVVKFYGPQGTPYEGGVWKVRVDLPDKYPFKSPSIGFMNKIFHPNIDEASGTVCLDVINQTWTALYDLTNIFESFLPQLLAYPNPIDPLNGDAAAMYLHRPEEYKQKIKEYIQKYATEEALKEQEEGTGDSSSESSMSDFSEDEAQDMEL
B1: RNF4 RING domain (UniProt P78317); chain TGLRPSGTVSCPICMDGYSEIVQNGRLIVSTECGHVFCSQCLRDSLKNANTCPTCRKKINHKRYHP
B2: RNF43 RING domain (UniProt Q68DV7); chain SGSSCSSAPVCAICLEEFSEGQELRVISCLHEFHRNCVDPWLHQHRTCPLCMFNITEGDSFS
B3: UBE4A RING domain (UniProt Q14139); chain LQQQEEETYADACDEFLDPIMSTLMCDPVVLPSSRVTVDRSTIARHLLSDQTDPFNRSPLTMDQIRPNTELKEKIQRWLAERKQQKEQLE
B4: TRIM52 RING domain (UniProt Q96A61); chain PMQTLQEEAVCAICLDYFKDPVSISCGHNFCRGCVTQLWSKEDEEDQNEEEDEWEEEEDEEAV
B5: RNF150 RING domain (UniProt Q9ULK6); chain DKETESDFDNCAVCIEGYKPNDVVRILPCRHLFHKSCVDPWLLDHRTCPMCKMNILKALGIP
B6: PHF7 RING domain (UniProt Q9BWX1); chain IQHGHVGEESCILCCEDLSQQSVENIQSPCCSQAIYHRKCIQKYAHTSAKHFFKCPQCNNRKEFPQEML
B7: RNF175 RING domain (UniProt Q8N4F7); chain LPTRSLSDNICAVCGQKIIVELDEEGLIENTYQLSCNHVFHEFCIRGWCIVGKKQTCPYCKEKVDLKRMIS
B8: TRIM35 RING domain (UniProt Q9UPQ4); chain PSRSFKEELLCAVCYDPFRDAVTLRCGHNFCRGCVSRCWEVQVSPTCPVCKDRASPADLRT
B9: TRIM10 RING domain (UniProt Q9UDY6); chain SVTSLADEVNCPICQGTLREPVTIDCGHNFCRACLTRYCEIPGPDLEESPTCPLCKEPFRPGSFRP
B10: RNF14 RING domain (UniProt Q9UBS8); chain IKCFNSKLFLCSICFCEKLGSECMYFLECRHVYCKACLKDYFEIQIRDGQVQCLNCPEPKCPSVATPGQVK
B11: RNF149 RING domain (UniProt Q8NC42); chain EKGIDVDAENCAVCIENFKVKDIIRILPCKHIFHRICIDPWLLDHRTCPMCKLDVIKALGYW
B12: TRIM3 RING domain (UniProt O75382); chain VQPMDKQFLVCSICLDRYQCPKVLPCLHTFCERCLQNYIPAQSLTLSCPVCRQTSILPEQGV
Sequence | lacZ reporter activity
B1 (RNF4 RING domain) | 2490
B2 (RNF43 RING domain) | 0
B3 (UBE4A RING domain) | 0
B4 (TRIM52 RING domain) | 0
B5 (RNF150 RING domain) | 0
SYEDKSNDFVCPICFDMIEEAYMTKCGHSFCYKCIHQSLEDNNRCPKCNYVVDNIDHLY (COP1 RING domain (UniProt Q8NHY2)) | 0
LKQVSIRENCCSLCCDEVADTQLKPCGHSDLCMDCALQLETCPLCRKEIVSRIRQI (RSPRY1 RING domain (UniProt Q96DX4)) | 0
B6 (PHF7 RING domain) | 0
B7 (RNF175 RING domain) | 0
B8 (TRIM35 RING domain) | 0
FLKKLEQSFMCVCCQELVYQPVTTECFHNVCKDCLQRSFKAQVFSCPACRHDLGQNYIMI (UHRF2 RING domain (UniProt Q96PU4)) | 0
B9 (TRIM10 RING domain) | 0
B10 (RNF14 RING domain) | 0
B11 (RNF149 RING domain) | 0
B12 (TRIM3 RING domain) | 0

Study 5 — technique: protein-binding microarray; molecule type: double-stranded DNA, one strand shown; matrix: in vitro; tested at: 2540 nM top; setting: 60-bp whole probe; added: salmon DNA 0.4 mg/ml; relative to: random background probes; reading: higher = stronger binding; all sequences stand within: GCCTAGCAC … GTCTTGATTCGCTTGACGCTGCTG
Target: Interferon regulatory factor 3, full length, phosphomimetic (IRF3, Homo sapiens, UniProt Q14653, residues 1-427, S386D/S396D/S398D/S402D/T404D/S405D)
UniProt Q14653, sequence (whole entry, unmodified, looked up): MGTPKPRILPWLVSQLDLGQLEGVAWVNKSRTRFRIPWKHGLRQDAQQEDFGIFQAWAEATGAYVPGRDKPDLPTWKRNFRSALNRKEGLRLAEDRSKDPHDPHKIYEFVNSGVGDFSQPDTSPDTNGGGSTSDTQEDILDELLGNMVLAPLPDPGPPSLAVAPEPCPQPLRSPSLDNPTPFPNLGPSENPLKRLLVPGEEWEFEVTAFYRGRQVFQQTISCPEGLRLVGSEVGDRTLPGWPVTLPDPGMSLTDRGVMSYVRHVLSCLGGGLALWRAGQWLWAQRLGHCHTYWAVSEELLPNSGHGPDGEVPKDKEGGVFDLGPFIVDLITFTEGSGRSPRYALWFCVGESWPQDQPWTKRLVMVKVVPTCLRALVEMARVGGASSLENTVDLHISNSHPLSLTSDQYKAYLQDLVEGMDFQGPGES
Oligonucleotide | fitted relative affinity [z-score]
GACGGTTCCGGGTTCGGGACGTGCTAG | 1.74
TTAGGAATCGACACTGGGTTAGTGCTA | -0.298
GACGGTTGCGGGTTTCGGGACGTGCTA | 2.94
GACGGTTCCGGTTTCAGGACGTGCTAG | 5.6
GACGGTATCGGTTTCGGGGCGTGCTAG | 6.65
TAGTTTTCATTTTCTGAATGTGTGCTA | 5.92
AAGACTTTGGTTTGTACACCGTGCTAG | -0.659
TTAGATTTCAGTTTCGATTGGTGCTAG | 5.37
GCTTCTCCTTGGAATAGATCGTGCTAG | 0.662
GACGGTATCCATTTCCTGACGTGCTAG | 5.35
TCAATTTTCATTTTCCAACTGTGCTAG | 4.54
TCAAGACTCATAATGGCTAGGTGCTAG | -0.252
GACGGTTTCGGTACCGGGACGTGCTAG | 7.24
TCATTTCTATTTTCTGAACTGTGCTAG | 3.71
GACGGTTTAGACACTGGGGACGTGCTA | 0.165
CACGGTTTCCTTTCCCTGACGTGCTAG | 9.32
CTTCCTCTTTCTCTGCTACCGTGCTAG | 3.12
GGAAATTCCAAGTTCATGGGGTGCTAG | 0.286
GACGGTTTCGGTTTCGGGGCGTGCTAG | 10.5

Study 6 — technique: RNA Bind-n-Seq; molecule type: RNA; matrix: in vitro; tested at: 365 nM; relative to: no-protein control; reading: higher = stronger binding
Target: RNA binding protein fox-1 homolog 2, RRM domain, GST-SBP tag (RBFOX2, Homo sapiens, UniProt O43251-10, residues 100-194)
Setting: natural RNA segment, single round, ends assumed
Residues (chain): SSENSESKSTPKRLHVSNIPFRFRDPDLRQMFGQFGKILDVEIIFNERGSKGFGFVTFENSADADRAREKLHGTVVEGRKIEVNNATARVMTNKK
Oligonucleotide | RBNS enrichment (R)
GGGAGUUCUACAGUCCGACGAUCAUCCUUUCCAGAAACAGAAAGAGCUCUUAACCUCUCUGAGCUCUUUCUGCAAUUCCUUUGGGCGAUUUCUGAAAGUUGCCACCCACGUACUCACAGAUCCACUGCCCGCCUGGAAUUCUCGGGUGCCAA | 0.408
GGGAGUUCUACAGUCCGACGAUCCUUGAUUUUUGUCAGCUAAUUACAUAAUUGGUAAGCUAUAAUUGAAACCUUAUGGCUUAAAAUUCCUUAACUCCUUUUUGAUUCAUGUUUGUAGUCAUGUUGUCAACAGAUGGAAUUCUCGGGUGCCAA | 0.474
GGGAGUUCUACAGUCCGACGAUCCCCACUGCGUACUGUGUUUUUAAUUUCAUUUAACUUCUAGCAGACACGCUCAGUGUCUUUGAUAAAAUAGUGUCUUUUUUUCAUGUGUUUUUAUUUCAUUUCUAAGAUUUUGGAAUUCUCGGGUGCCAA | 0.729
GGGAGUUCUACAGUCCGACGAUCUUCCCCCACCCCCCCAGUUUUUUCAGAUUUCUUUACCUUUUUUUAAUUAAACUGUUUUGGAAAAAUGCGUGGUCGUCCUCGAAUUUGCAGUUUUCCAUUUGGUCGGGAUGUGGAAUUCUCGGGUGCCAA | 0.794
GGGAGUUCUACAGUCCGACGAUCUGGCUCUUCACAAUCCAUAGGCUUGAAUCUGCAACCUAGUGUAAACUGCCUUGCUUUCCCCGGUUCUUUCCCCUGCUAGCACCUGCUUUCUCAUCCCUAUCUCCAGUCAAUGGAAUUCUCGGGUGCCAA | 0.444
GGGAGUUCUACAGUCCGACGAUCGGUGGGCAUCUCGAUGCUUCUUUGCCUUAAUGAUGGCCACAUCUGGGCUGCUCUGCACCCACGGGAGAGGCUGGCCCAGCUGCAGACUGCUUAGGGACUUCUGUGUCCAUUGGAAUUCUCGGGUGCCAA | 0.256
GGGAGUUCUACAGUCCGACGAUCGACCCUGCGAGGACACGGGCACCCAGCAGCACCUCUCCUCUGUUACCUUCCCCUUGGCGAUCGCUCGGGUUUGUGUUAAGUUAAUCUGUAUGUCCUGUCUGCCAGCGUUCUGGAAUUCUCGGGUGCCAA | 1.13
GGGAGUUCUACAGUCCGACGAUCGGGAAAUAUCCUAUGUUUUCUUGCUCAAACACCUUUCUCUCUGAAAGCAGAAAAAGGCACUGAUAUAAAGGGAAGAGAAGGAGGCUCACCGGAGGGAAGAGAACAUAGUGUGGAAUUCUCGGGUGCCAA | 0.373
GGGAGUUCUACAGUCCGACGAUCAUGGGAACCCACCUCCUGCAUCAGUGUGACCUGGAUGUGAGACAUGGAGUCAAAGGAGACCAUUUUGGAGCUUUAAGAUUUAACUGCCCUGCUGGAUUUCAGACUUGCAUUGGAAUUCUCGGGUGCCAA | 0.427
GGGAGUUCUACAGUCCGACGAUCUCCUGUUGAAGACUUCCUCUCUACCCCCCACCUUGGUCCCUCUCAGAUACCCAGUGGAAUUCCAACUUGAAGGAUUGCAUCCUGCUGGGGCUGAACAUGCCUGCCAAAGAUGGAAUUCUCGGGUGCCAA | 1.06
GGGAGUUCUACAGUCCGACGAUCCUUGUGAGUGCCAAUGUAUAAUGCAGUAAAGACUACAUGGAAACACAAACUCAGUCCUUAAAACCCCAGGAGUUGAGGGGAAGUGUUGGCACAGUGAUGGCCUGUGUCACUGGAAUUCUCGGGUGCCAA | 0.478
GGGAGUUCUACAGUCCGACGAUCGUAGGAUCCUCUGCAGAUUUCCACUGCUGUCCCUGGCCAGAGUGCAGGAACCAGAGGACCCAGAGAAGGCGGUGGGGACCCAGCCUGGCGCCAGGGAGUGUGCCCCCAAUUGGAAUUCUCGGGUGCCAA | 0.338

Excerpt of the above (study 4):
Sequence | lacZ reporter activity
B1 (RNF4 RING domain) | 2490
B2 (RNF43 RING domain) | 0
B3 (UBE4A RING domain) | 0
B4 (TRIM52 RING domain) | 0
B5 (RNF150 RING domain) | 0
SYEDKSNDFVCPICFDMIEEAYMTKCGHSFCYKCIHQSLEDNNRCPKCNYVVDNIDHLY (COP1 RING domain (UniProt Q8NHY2)) | 0
LKQVSIRENCCSLCCDEVADTQLKPCGHSDLCMDCALQLETCPLCRKEIVSRIRQI (RSPRY1 RING domain (UniProt Q96DX4)) | 0
B6 (PHF7 RING domain) | 0
B7 (RNF175 RING domain) | 0
B8 (TRIM35 RING domain) | 0
FLKKLEQSFMCVCCQELVYQPVTTECFHNVCKDCLQRSFKAQVFSCPACRHDLGQNYIMI (UHRF2 RING domain (UniProt Q96PU4)) | 0
B9 (TRIM10 RING domain) | 0
B10 (RNF14 RING domain) | 0
B11 (RNF149 RING domain) | 0
